Measurements of several laboratories.
A part holds a random share of what one study measured. Substitutions count along the parent as printed.

Study 1
Target: RNA binding protein fox-1 homolog 2, RRM domain, GST-SBP tag (RBFOX2, Homo sapiens, UniProt O43251-10, residues 100-194)
Method: RNA Bind-n-Seq
Form: RNA
Medium: in vitro
Concentration: 365 nM
Notes: natural RNA segment, single round, ends assumed
Baseline: no-protein control
Direction: higher = stronger binding
Quantity: RBNS enrichment (R)
All sequences stand within: GGGAGUUCUACAGUCCGACGAUC … UGGAAUUCUCGGGUGCCAA
Residues (chain): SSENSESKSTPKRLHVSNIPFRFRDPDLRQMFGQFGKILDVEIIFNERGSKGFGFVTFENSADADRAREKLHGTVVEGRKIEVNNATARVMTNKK
AGCUAGGCUUCAUCUACCUCAGCUCUUUUAAAGCAGUCGCUACAGGAAAGAGGUAGGAGAGGCCGUGGAAAGCUUGUGUCCAGACGUCACUCCGGACAGUCCGACUUCCG: 0.268
CCAGGGUUCUCCCCCCUACACCCUCUGCAGGUGGAGAGAGAGAAGCUGGGCCCAGCCGGGCCGUGCCUGCUGGCACAGACGCCUUAACGCUGUGUGUAUGACUGUGUGAC: 0.3
GUUUACUACAUUUUUUAUUGAAGGUCAGCCAUGCUUUCUGUAUUAUAUUGCAUAUGAAAUUGUUUACAAAAGAAACACUAACUCAUACUUCUCUUUAUUGGUUGCAAGUG: 0.453
GCUGGUCCCAGGUCAGCGUGGGAGGCACCUUUGGGUUCCCAGUGCCCAGCACUUUGUAGUCUCAUCCCAGAUUACUAACCCUUCCUGAUCCUGGAGAGGCAGGGAUAGUA: 0.322
UAGCCAGGACUGAGGGGCUGGCCCCAGGACGCUCUCAAGAAAUGGGGCUACUGUGGUUUAGACACUCCUGCUGCUCACAUUGAUGGGUGGCUAUUAAAGUUUCUUCACCC: 0.239
CUGUGGCUGCAAGGCGGUCAGUUGCUGCUUGUCCCAGCAGGUGGCCUUGAUCUCUCCAUGCCCCACCUUAAGUGGUAAGCAUGUUUAAUUAUCAAAGGCCCCAUUUGUCA: 0.393
UUAGGACCAAAUUGUUAGAAAGCAUCAGGAUGACCAGUUAUCUCGAGUAGAUUUUCUUGGAUUUCAGAACAUCUAGCAUGACUCUGAAGGAUACCACAUGUUUUAUAUAU: 1.21
ACCUGAAAUGAAGGAAGAGGAGACUCUGCGCAGAGCACUUUGGGUCCGGAGGGCGAGACUCCGGCGGAAGCAUUCCCGGGCGGGUGACCCAGCACGGUCCCUCUUGGAAU: 0.503
UUAAAAAUGCUCUGCAUUUCUUCCAGUGCAAUGAAAUUCAUAUGGUGUCCCACCUUAUUUAAUGAUGGUACAAUUGAAAAUAUUAAAAUCUUAGUCAACCUCUGUAGAAA: 0.397

Study 2
Target: Interferon regulatory factor 5, full length, phosphomimetic (IRF5, Homo sapiens, UniProt Q13568-2, residues 1-514, S451D/S453D/S456D/S462D)
Method: protein-binding microarray
Form: double-stranded DNA, one strand shown
Medium: in vitro
Concentration: 940 nM top
Notes: 60-bp whole probe
With: salmon DNA 0.4 mg/ml
Baseline: random background probes
Direction: higher = stronger binding
Quantity: fitted relative affinity
All sequences stand within: GCCTAGCAC … GTCTTGATTCGCTTGACGCTGCTG
GACGGTATCGGACTGGGAACGTGCTAG: 2.39 z-score
TCATGATTACATATATGACTGTGCTAG: -0.236 z-score
GTTCAAAGTCCTACGGCTTCGTGCTAG: -0.579 z-score
TCACTTTGCTTTCTCCCACTGTGCTAG: 1.74 z-score
TCATTTTCCTCTGTCATACTGTGCTAG: 1.37 z-score
GACGAACTGAGTATCGAGAGGTGCTAG: 1.32 z-score
TTAGGTTTCGGACTGGATTAGTGCTAG: 7.68 z-score
GACGATATCAGTCTCGAGATGTGCTAG: 0.8 z-score
TTAGGTATCGGACTGGGGTAGTGCTAG: 3.53 z-score
TTAGGACTGGGATTCGGTTAGTGCTAG: -0.0838 z-score
CACGGTCTCCTTATCCTGACGTGCTAG: 0.547 z-score
GACGAACTGGGGTTTCGACACGTGCTA: 2.36 z-score
GACGTTATCGGGTTTCGGGACGTGCTA: 2.13 z-score
ATTCCTTTGCCTCCAGGCGCGTGCTAG: 0.146 z-score
GACAGTATCCTTCTCCTGACGTGCTAG: 1.09 z-score
TTAGATATCATACTGGATTAGTGCTAG: -0.343 z-score
TTAGGACTGAGTCTCGGTTAGTGCTAG: 2.96 z-score
GACGATATCAGTTTGGAGACGTGCTAG: -0.175 z-score
TTAGCTTTCGGTTCCGGTTAGTGCTAG: 6.94 z-score
GACGGCTTCGGACTGGGGACGTGCTAG: -0.593 z-score
GACGGTATGGGGTATCGGGACGTGCTA: 0.893 z-score
GACGATATCAGTTTCGAGAGGTGCTAG: 3.53 z-score
TTAGCTTTCGGGTTTCGGTTAGTGCTA: 7.33 z-score
TTAGGTTTCGGTTTTCGGTTAGTGCTA: 13.2 z-score
GGACCGCGACCTGCCAAGTCGTGCTAG: -0.638 z-score

Study 3
Target: CCNB3, cyclin fold, Cln2 fusion (human)
Method: yeast growth competition, sequencing
Medium: yeast
Notes: weak parent motif
Baseline: not given
Direction: higher = stronger binding
Quantity: normalised enrichment score
Starting sequence: ORC1 docking peptide (human); PRARKRLELGNLG; partner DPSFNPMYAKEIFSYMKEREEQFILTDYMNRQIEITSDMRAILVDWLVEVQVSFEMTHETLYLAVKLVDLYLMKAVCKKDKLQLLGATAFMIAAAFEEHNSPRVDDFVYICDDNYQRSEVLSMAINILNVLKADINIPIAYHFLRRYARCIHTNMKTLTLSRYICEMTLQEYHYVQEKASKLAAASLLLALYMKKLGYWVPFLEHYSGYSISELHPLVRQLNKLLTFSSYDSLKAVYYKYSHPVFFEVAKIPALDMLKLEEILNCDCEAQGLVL
R2T: 0.778
E8R: -0.0422
L7Q: 0.149
G10S: -0.193
R2G: 0.296
R4G: 0.321
R4F: 0.304
P1I: -0.129
P1S: -0.266
L7W: 0.147
R4V: 0.0343
L7N: -0.253
P1E: 0.182
R2M: 0.839
E8D: 0.73
G10D: 0.293
R2L: -0.177
P1R: 0.219
N11V: 0.464
G13W: -0.505
R6L: 0.425

Study 4
Target: RING finger protein unkempt homolog, zinc fingers 1-6, GST-SBP tag (UNK, Homo sapiens, UniProt Q9C0B0, residues 30-357)
Method: RNA Bind-n-Seq
Form: RNA
Medium: in vitro
Concentration: not given
Notes: RNA with constant flanks, human and mouse sites, ends assumed
Baseline: input RNA pool
Direction: higher = stronger binding
Quantity: bound/input enrichment
All sequences stand within: GGGAGUUCUACAGUCCGACGAUC … CAACAGAGGAUUGAGCAUCA
Residues (chain): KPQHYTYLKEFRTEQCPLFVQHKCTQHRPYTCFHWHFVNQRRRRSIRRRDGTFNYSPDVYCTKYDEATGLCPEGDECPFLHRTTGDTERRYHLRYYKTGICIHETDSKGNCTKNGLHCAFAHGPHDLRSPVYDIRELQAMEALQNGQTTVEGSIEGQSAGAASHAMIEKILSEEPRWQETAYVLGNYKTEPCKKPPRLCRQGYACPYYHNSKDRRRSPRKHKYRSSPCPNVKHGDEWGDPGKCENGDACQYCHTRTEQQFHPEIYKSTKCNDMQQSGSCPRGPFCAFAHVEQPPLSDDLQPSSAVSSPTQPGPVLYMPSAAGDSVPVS
UGUUGAUGACUUCUUGUGGCAUUUCACACACUGUAGAUGGUCACUCCCUUCAUGUCCAUGUUAGCUCAUGGUGUAAGAUGAUGUCUUGUCAGUAUUACUGUUUUGCUAAGCCGCUUCAUU: 0.0832 ratio
UGAGCCCCGAGCCCGGCGCGGUCCCCGCAAGAUGGACGGUUUCGCCGGCAGCCUCGAUGAUAGUAUUUCUGCUGCAAGUACCUCUGACGUUCAAGACCGCCUCUCAGCUCUUGAGUCACG: 0.442 ratio
GAAUUUUGUGCAUUUUCUCAGACAUUGCAACCUCAGAACAGGGAUGCUUUUUUCAAAACCUUAGCAAAAUUGGGAAUUCUUCCAGCUCUUGAAAUUGUAAUGGGCAUGGAUGACUUGCAA: 0.295 ratio
ACUUUUAAUUUUGCAAAGAAUCCAGGACAAAAAGGAUUAGAUCUAGAAAUGGCCAUUGCUUACUGGAACUUAGUGCUUAAUGGAAGAUUUAAAUUCUUAGACUUAUGGAAUAAAUUUUUG: 2.64 ratio
AUUUGGUCAAGAUACUCACUUGUAAUUAUUCCAAAAAAUUGGAGUCUGUUUGCUGUUAAUUUCUUUGUGGGGGCAGCAGGAGCCUCUCAGCUUUUUCGUAUUUGGAGAUAUAACCAAGAA: 0.242 ratio
CUGAUUUGUUUUGUGAUUUUUAACUUAUGAGGCAAGAAAGGUCUUCCUUCAAUAUUGUCUCUUAGGGAAUCUCUCUCUCAGUGUUUGAACUUAACUUGUGCUUGAAAUUCUACAGUUUCA: 0.0942 ratio
CAGCAAAAUGUGACCCAGGUGGCACAUUCUCCACAAGGUUACAACACAGCAAGGGAGAAGCCAACCCGAGAGGUGCAGGAGGUGUCUCGAAAUAAUGAUGUGUGGCAGAACCAUGAAGCA: 0.183 ratio
AAUGGUUUGCCCAGUCCUGACCACAUACUGUCCUUUCUGAUGGGACAAGAUCCAAUAUGAAUGUAAGUGAUGGAGGAAGACGACGCUUUGAGGAUAAUGAACACACAUUGCGAAUAUAUC: 0.11 ratio
UCAGGGCUUAAGACUACAUUGUUAGGCUUGGAUGAGCAAUCUGUUAAAGAAGUAAGAAGCACUCGGGCAGCGUGUACUGGACUUUACUGCAGCUGCUUUCAACCAGCUCCCUGUCACAGC: 0.261 ratio
UGUCGCUCCUUUGGAAAUAAUAAAUAUCCACAAAAUAGUGAUGAUGAAGAAAAUGAACCACAGAUUGAAAAAGAGGAAAUGGAGCUUAGUUUGGUGAUGUCCCAGAGAUGGGACAGCAAU: 1.05 ratio
AAAUAUGACUCAAGUGUGAGUGGUCAAUCAUCUUUUGUGACAUCCCCAGCAGCAGACAACAUAGAAAUGCUUCCUCAUUAUGAGCCAAUUCCAUUCAGUUCUUCUAUGAAUGAAUCUGCU: 0.248 ratio

For quick reference, copied from above (study 3):
R4V: 0.0343
L7N: -0.253
P1E: 0.182
R2M: 0.839
E8D: 0.73
G10D: 0.293
R2L: -0.177
P1R: 0.219
N11V: 0.464
G13W: -0.505
